{"data": "Measured values collected from several papers", "note": "Each numbered part is a random draw from the data of one study; scales do not carry over between parts."}
{"data": "Study 1", "target": "Interferon regulatory factor 7, full length, phosphomimetic (IRF7, Homo sapiens, UniProt Q92985, residues 1-503, S471D/S472D/S475D/S476D/S477D/S483D/S484D/S487D)", "technique": "protein-binding microarray", "molecule type": "double-stranded DNA, one strand shown", "sample": "in vitro", "concentration": "2200 nM top", "notes": "60-bp whole probe", "together with": "salmon DNA 0.4 mg/ml", "relative to": "random background probes", "reading": "higher = stronger binding", "shared flanks, not repeated": "GCCTAGCAC … GTCTTGATTCGCTTGACGCTGCTG", "chain of UniProt Q92985 (whole entry, unmodified, looked up)": "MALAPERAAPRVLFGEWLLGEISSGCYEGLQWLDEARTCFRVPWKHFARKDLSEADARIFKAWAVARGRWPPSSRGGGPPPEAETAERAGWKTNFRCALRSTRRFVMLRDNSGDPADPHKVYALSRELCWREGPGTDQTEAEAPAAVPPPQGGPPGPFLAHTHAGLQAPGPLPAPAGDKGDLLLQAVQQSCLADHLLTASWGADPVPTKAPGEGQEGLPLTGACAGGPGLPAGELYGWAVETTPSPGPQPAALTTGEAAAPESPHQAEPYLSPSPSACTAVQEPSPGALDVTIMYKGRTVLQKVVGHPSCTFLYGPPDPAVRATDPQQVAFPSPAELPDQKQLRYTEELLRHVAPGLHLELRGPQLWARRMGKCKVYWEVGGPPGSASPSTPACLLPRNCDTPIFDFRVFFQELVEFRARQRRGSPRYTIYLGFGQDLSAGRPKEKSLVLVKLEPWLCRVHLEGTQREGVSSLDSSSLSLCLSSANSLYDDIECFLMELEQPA"}
{"Oligonucleotide": "TAGTATATACACTTATGACTGTGCTAG", "fitted relative affinity [z-score]": 0.468}
{"Oligonucleotide": "TATTTTCTGAATGTCTTCCCGTGCTAG", "fitted relative affinity [z-score]": 4.35}
{"Oligonucleotide": "TGAGGTTTCGGGACTGGGTTAGTGCTA", "fitted relative affinity [z-score]": 2.66}
{"Oligonucleotide": "GACTGTCTCGGTCTCGGGACGTGCTAG", "fitted relative affinity [z-score]": 0.251}
{"Oligonucleotide": "AGTCCTGTCCAAGATGAGGAGTGCTAG", "fitted relative affinity [z-score]": 0.204}
{"Oligonucleotide": "GACGGACTGGGCATCGGGACGTGCTAG", "fitted relative affinity [z-score]": -1.13}
{"Oligonucleotide": "GACGATATCGGGCCTGGAGACGTGCTA", "fitted relative affinity [z-score]": -0.45}
{"Oligonucleotide": "GACGGGCTGGGTCTCGGGACGTGCTAG", "fitted relative affinity [z-score]": -0.999}
{"Oligonucleotide": "TTTGGTTTGTACACCGCCTTGTGCTAG", "fitted relative affinity [z-score]": 1.6}
{"Oligonucleotide": "TTAGAACTGAGTTTCGACTAGTGCTAG", "fitted relative affinity [z-score]": 1.55}
{"Oligonucleotide": "TTAGGTATCGACTTTCGGTTAGTGCTA", "fitted relative affinity [z-score]": 6.03}
{"Oligonucleotide": "TCATGTTTACATATGTTACTGTGCTAG", "fitted relative affinity [z-score]": 1.66}
{"Oligonucleotide": "TAAGATTTCAGTCTCGATTAGTGCTAG", "fitted relative affinity [z-score]": 0.507}
{"Oligonucleotide": "ACCTTTGTTTTTTTCTATATGTGCTAG", "fitted relative affinity [z-score]": 2.52}
{"Oligonucleotide": "GACGATTTCAGTCTCGAGAGGTGCTAG", "fitted relative affinity [z-score]": 0.464}
{"Oligonucleotide": "GAATGTCTTCCCCTCTCATTGTGCTAG", "fitted relative affinity [z-score]": 1.41}
{"data": "Study 2", "target": "Ras GTPase-activating protein-binding protein 1, RRM domain (G3BP1, Homo sapiens, UniProt Q13283)", "technique": "RNA Bind-n-Seq", "molecule type": "RNA", "sample": "in vitro", "concentration": "1 µM", "notes": "whole 134-nt RNA, ends assumed", "together with": "150 mM KCl", "relative to": "input library", "reading": "higher = stronger binding", "shared flanks, not repeated": "GGGAGUUCUACAGUCCGACGAUC … UGGAAUUCUCGGGUGUCAAGG", "chain of UniProt Q13283 (whole entry, looked up)": "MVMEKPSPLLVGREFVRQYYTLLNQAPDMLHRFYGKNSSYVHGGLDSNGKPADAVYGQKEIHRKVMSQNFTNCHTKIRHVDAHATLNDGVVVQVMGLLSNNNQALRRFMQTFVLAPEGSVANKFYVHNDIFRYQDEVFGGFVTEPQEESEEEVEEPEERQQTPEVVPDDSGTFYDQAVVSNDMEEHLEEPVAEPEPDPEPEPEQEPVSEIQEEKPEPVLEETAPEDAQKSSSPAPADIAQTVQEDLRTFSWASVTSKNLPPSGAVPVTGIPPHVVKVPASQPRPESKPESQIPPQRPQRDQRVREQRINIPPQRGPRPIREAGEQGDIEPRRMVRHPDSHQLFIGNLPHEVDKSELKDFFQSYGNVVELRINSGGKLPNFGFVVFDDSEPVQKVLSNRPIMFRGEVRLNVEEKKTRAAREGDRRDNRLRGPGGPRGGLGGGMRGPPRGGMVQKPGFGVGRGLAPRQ"}
{"Oligonucleotide": "GCAGGAAGUAAAAACAAAUGGAAAUGCUUCGGAUAGUGGCAGGGGUGUGGGUUGCUAAGGAAAGGGUGGGAUGGGAGUGGGUAAAGAGUU", "log2 enrichment": 0.857}
{"Oligonucleotide": "UGGCCCUGGUGGCAUGCGGGGAGGAAGACGUGGCCUCAUGGAUCGUGGUGGUCCCGGUGGAAUGUUCAGAGGUGGCCGUGGUGGAGACAG", "log2 enrichment": 0.824}
{"Oligonucleotide": "GUCCUGUGCUACACAUCGUAUGUACCGAAUCGGGAAAAAAGGAAAAAAGGAAAAAAGGAAAGUAUUAUGUUACGCCGUUCGGAUCUGCAC", "log2 enrichment": 0.0617}
{"Oligonucleotide": "UAACUUUAGAGGAGGAUCUGAUGGAUAUGGCAGUGGACGUGGAUUUGGGGAUGGCUAUAAUCGGUAUGGAGGAGGACCUGGAGGUGGCAA", "log2 enrichment": -0.236}
{"Oligonucleotide": "CAAGUCCUGUGCUACACAUCGUAUGUACCGAAUCGGAAAAGGAAAAGGGGAAAAGGAAAGUAUUAUGUUACGCCGUUCGGAUCUGCACUU", "log2 enrichment": -0.139}
{"Oligonucleotide": "UGCCUGCUCCGGGCCCCGUGCUGGCGCCUACGCACCUGCAGACAGAGCUGGUGCUGAGGUGCCAGAAGGAGACCGACUGUGACCUCUGUC", "log2 enrichment": -0.625}
{"Oligonucleotide": "GCAGGAAGUAAAAACAAAUGGAAAUGCUUCGGAUAGUGGCAGGGAAAGGGGUUGCUAAGGAAAGGGUGGGAUGGGAGUGGGUAAAGAGUU", "log2 enrichment": 1.32}
{"Oligonucleotide": "CUGUGCUACACAUCGUAUGUACCGAAUCGGAAAAAAAGGGGAAAAAAAGGGAAAAAAAGGGGAAAGUAUUAUGUUACGCCGUUCGGAUCU", "log2 enrichment": 0.0525}
{"Oligonucleotide": "CCUCAAGUCCUGUGCUACACAUCGUAUGUACCGAAUCGGAAAGGAAAGGAGGAAAGUAUUAUGUUACGCCGUUCGGAUCUGCACUUCCAG", "log2 enrichment": -0.186}
{"Oligonucleotide": "AAGUCCUGUGCUACACAUCGUAUGUACCGAAUCGGGUGGGUUUUUGGGUUUUUGGGAAAGUAUUAUGUUACGCCGUUCGGAUCUGCACUU", "log2 enrichment": 0.325}
{"Oligonucleotide": "UGGGAGGUGGAUUUUGUUUAUUUGUUUAGCUCAUUUCCAGGGGUGGGAAUUUUUUUUUAAUAUGUGUCAUGAAUAAAGUUGUUUUUGAAA", "log2 enrichment": 1.35}
{"Oligonucleotide": "UGGGAGGUGGAUUUUGUUUAUUUUUUUAGCUCAUUUCCAGGGGUGGGAAUUUUUUAUUAAUAUGUGUCAUGAAUAAAGUUGUUUUUGAAA", "log2 enrichment": 2.13}
{"Oligonucleotide": "UGUGGAGGAGACGGCCGACUCGACGCUGUGCCACAUCCUGAACCUGUACCGGCGGGCCACCUGGCUGCACCAGGCGCUGCGGGAGGGCAC", "log2 enrichment": -0.514}
{"Oligonucleotide": "CCUGUGCUACACAUCGUAUGUACCGAAUCGGGGCCCCCCGGGCCCCCCGGGCCCCCCGGGGAAAGUAUUAUGUUACGCCGUUCGGAUCUG", "log2 enrichment": -0.642}
{"data": "Study 3", "target": "RNA binding protein fox-1 homolog 2, RRM domain, GST-SBP tag (RBFOX2, Homo sapiens, UniProt O43251-10, residues 100-194)", "technique": "RNA Bind-n-Seq", "molecule type": "RNA", "sample": "in vitro", "concentration": "365 nM", "notes": "natural RNA segment, single round, ends assumed", "relative to": "no-protein control", "reading": "higher = stronger binding", "shared flanks, not repeated": "GGGAGUUCUACAGUCCGACGAUC … UGGAAUUCUCGGGUGCCAA", "Construct (chain)": "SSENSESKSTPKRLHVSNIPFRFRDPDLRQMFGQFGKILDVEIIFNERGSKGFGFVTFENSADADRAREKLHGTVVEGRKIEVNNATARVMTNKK"}
{"Oligonucleotide": "GCCCGUCAUUCAGAGACCACUGUGAACAUUUGGAUGUAGAUGCUGUUCUCCCUAACUCUUUGUUCCAGUGCUGGGAAUUGAAUAGUGAGGUUCAGGAUUGCUAAGCGAGU", "RBNS enrichment (R)": 0.564}
{"Oligonucleotide": "AGAAGGACUCCUGAAGUUACUGCUGCUCAGAAAAACAGUUCCUUUAAUGUGGAAGAGCCAUUUCAUAGGUCAUAGGUGGUAUGGUAUAUUUCUUCAGAGUCAACCUUGGC", "RBNS enrichment (R)": 0.585}
{"Oligonucleotide": "GCUAGGCUAAGUCAAGAUCAACAUUCCAGGGUUGGUAAUGUUGGAUGAUGAAACAUUCAUUUUUACCUUGUGGAUGCUAGUGCUGUAGAGUUCACUGUUGUACACAGUCU", "RBNS enrichment (R)": 0.336}
{"Oligonucleotide": "CCUCAUCCCUCUAAGCAGCUGUCUGUGUGGGUCCUGUCAAUCCCCACACAGACGAAGGUAGCCAGUCACAAGGUUCUGUGCCACCCUGGCCCUAGUGCUUCCAUCUGAUG", "RBNS enrichment (R)": 0.379}
{"Oligonucleotide": "CUGAGGCUCAUCUGAUACCUGCACCUUCUCCCCAAGCCAGCGUGGACCCUGGUGUCUAUGGUGAAGCUGGGCCCUCCCACCCUGAGCCUUCCUAGACCCUUGGACUCUCA", "RBNS enrichment (R)": 0.336}
{"Oligonucleotide": "AUUUCUAUGCUUCUUCCUUUAUGAAAGCAUAACUUAAAACAUGAAAAUAAUGUUGGUUAUAGAAAUAUUUACUGUUCAAGGUCUGUAAUUGUAUUUUAAAAUGAUGUAGU", "RBNS enrichment (R)": 0.924}
{"Oligonucleotide": "UGCCUCGACACAGCACUGUGGCCUGUCCCUAUUGCCCAGGCACGCCAUUUCCAAGGGCAGGAAGGGGCAGUGUCCUGAAGCCCAUCUUUUCUGUGACUGUCUUAGGUGAU", "RBNS enrichment (R)": 0.57}
{"Oligonucleotide": "AUUAAGCCUUGUGCAGGAUGAUGGAUUUGACUUACUAAUGUACUGUCACAGACAAAUAUGGGUAGUUUUGUUUAAAUAGGUAAGCAAAAUAUUAUACUUUAUAGCAGUGG", "RBNS enrichment (R)": 0.279}
{"Oligonucleotide": "UGAAGGUAAAACAUAGUGUAUCAUUGUGUAAACUCCCAGGCUUGAUGUAGCAGAAGAGAUCAUUUCUGGAGGCUUCAGCAAUGGAAUUUAGCAUUAUAAGAGAGAUUGGA", "RBNS enrichment (R)": 0.805}
{"Oligonucleotide": "GAAAUCAACUUUAGAGCUUUGCUUUUCUCUGAGUUCAUCCUGCAGUGAAUGACAGGUACUGACAGCCCAACAUUAAGGUGCAAAUAGCCUGUUUGUCAUAUCAGAAGCCA", "RBNS enrichment (R)": 0.326}
{"Oligonucleotide": "CACCAGCUGUGCCAUGUUCGAGACCUGGGCUGGCUCAAGCCGGCUGCCUUCACCGGGAGCCACGCCGUGCAUGGCAGCCUUCCCUGGACGAGCGCUCGGUGUUCACACUG", "RBNS enrichment (R)": 1.13}
{"Oligonucleotide": "ACAAGGGGCUGGCUGUCCUGGGCUCCCUGACCCACUGAAGCUUCUCAGCACGUUCCUCCCUGGAGAGCGGGCGCCACGGCUGGUAUUCUGCAGGCUGAAUGCAGUCUCCA", "RBNS enrichment (R)": 0.718}
{"data": "Study 4", "target": "Histone acetyltransferase KAT6A, both winged helices, GST fusion (KAT6A, Homo sapiens, UniProt Q92794, residues 1-181)", "technique": "protein binding microarray", "molecule type": "double-stranded DNA, one strand shown", "sample": "in vitro", "concentration": "not given", "notes": "8-mer, flanks averaged, mean of 2 arrays, mostly near background", "relative to": "not given", "reading": "higher = stronger binding", "Residues (chain)": "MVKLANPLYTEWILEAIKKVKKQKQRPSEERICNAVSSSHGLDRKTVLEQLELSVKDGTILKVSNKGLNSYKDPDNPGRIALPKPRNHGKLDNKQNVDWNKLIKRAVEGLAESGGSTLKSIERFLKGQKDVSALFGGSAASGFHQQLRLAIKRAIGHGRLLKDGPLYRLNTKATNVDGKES"}
{"Oligonucleotide": "AGCTAGCT", "E-score": -0.299}
{"Oligonucleotide": "CCCGGACC", "E-score": -0.0397}
{"Oligonucleotide": "AGACATCA", "E-score": -0.0358}
{"Oligonucleotide": "ACAGAGCG", "E-score": 0.118}
{"Oligonucleotide": "TCATGCAA", "E-score": -0.0969}
{"Oligonucleotide": "ATTAACGA", "E-score": 0.00752}
{"Oligonucleotide": "GGCACTTA", "E-score": 0.0518}
{"Oligonucleotide": "AACCGCCG", "E-score": 0.272}
{"Oligonucleotide": "TACTCCTA", "E-score": -0.152}
{"Oligonucleotide": "ATCGCTTA", "E-score": 0.0926}
{"Oligonucleotide": "CCATCCGC", "E-score": 0.175}
{"Oligonucleotide": "ACGCGATC", "E-score": 0.171}
{"Oligonucleotide": "AGCTTCGC", "E-score": -0.0267}
{"Oligonucleotide": "CTTTTCGA", "E-score": -0.179}
{"Oligonucleotide": "AAAGCAGT", "E-score": -0.109}
{"Oligonucleotide": "ATCCCCAC", "E-score": -0.245}
{"Oligonucleotide": "AGTCGAGC", "E-score": -0.106}
{"Oligonucleotide": "GATATGGA", "E-score": 0.029}
{"Oligonucleotide": "AACCCTCT", "E-score": -0.17}
{"Oligonucleotide": "AGTTCGAT", "E-score": -0.0513}
{"Oligonucleotide": "CCATACCA", "E-score": -0.129}
{"Oligonucleotide": "ATCAGACG", "E-score": 0.105}
{"Oligonucleotide": "CTGATCAA", "E-score": -0.0365}
{"Oligonucleotide": "CGCCCTAA", "E-score": 0.0974}
{"Oligonucleotide": "CCCATCAA", "E-score": -0.182}
{"note": "Repeated from above (study 2):"}
{"Oligonucleotide": "GCAGGAAGUAAAAACAAAUGGAAAUGCUUCGGAUAGUGGCAGGGGUGUGGGUUGCUAAGGAAAGGGUGGGAUGGGAGUGGGUAAAGAGUU", "log2 enrichment": 0.857}
{"Oligonucleotide": "UGGCCCUGGUGGCAUGCGGGGAGGAAGACGUGGCCUCAUGGAUCGUGGUGGUCCCGGUGGAAUGUUCAGAGGUGGCCGUGGUGGAGACAG", "log2 enrichment": 0.824}
{"Oligonucleotide": "GUCCUGUGCUACACAUCGUAUGUACCGAAUCGGGAAAAAAGGAAAAAAGGAAAAAAGGAAAGUAUUAUGUUACGCCGUUCGGAUCUGCAC", "log2 enrichment": 0.0617}
{"Oligonucleotide": "UAACUUUAGAGGAGGAUCUGAUGGAUAUGGCAGUGGACGUGGAUUUGGGGAUGGCUAUAAUCGGUAUGGAGGAGGACCUGGAGGUGGCAA", "log2 enrichment": -0.236}
{"Oligonucleotide": "CAAGUCCUGUGCUACACAUCGUAUGUACCGAAUCGGAAAAGGAAAAGGGGAAAAGGAAAGUAUUAUGUUACGCCGUUCGGAUCUGCACUU", "log2 enrichment": -0.139}
{"Oligonucleotide": "UGCCUGCUCCGGGCCCCGUGCUGGCGCCUACGCACCUGCAGACAGAGCUGGUGCUGAGGUGCCAGAAGGAGACCGACUGUGACCUCUGUC", "log2 enrichment": -0.625}
